Assay results pooled from the literature.
A part holds a random share of what one study measured. Changes are numbered by the printed parent chain.

Block 1
Target: CCND1, cyclin fold, Cln2 fusion (human)
Technique: yeast growth competition, sequencing
Sample: yeast
Setting: weak parent motif
Baseline: not given
Reading: higher = stronger binding
Starting sequence: BRCA2 docking peptide (human); PSIKRNLLNEFDR; partner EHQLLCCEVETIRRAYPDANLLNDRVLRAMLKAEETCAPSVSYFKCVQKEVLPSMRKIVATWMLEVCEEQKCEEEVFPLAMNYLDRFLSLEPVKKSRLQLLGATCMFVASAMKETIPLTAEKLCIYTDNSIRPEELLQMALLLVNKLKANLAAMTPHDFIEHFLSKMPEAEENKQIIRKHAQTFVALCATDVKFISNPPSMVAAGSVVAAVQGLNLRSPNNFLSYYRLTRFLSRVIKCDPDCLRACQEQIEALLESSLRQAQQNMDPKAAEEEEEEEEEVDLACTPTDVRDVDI
Change	normalised enrichment score
K4V	0.352
L8E	0.339
S2P	0.276
N9I	1.06
D12A	1.07
D12E	0.467

Block 2
Target: RING finger protein unkempt homolog, zinc fingers 1-6, GST-SBP tag (UNK, Homo sapiens, UniProt Q9C0B0, residues 30-357)
UniProt Q9C0B0, sequence (30-357, looked up): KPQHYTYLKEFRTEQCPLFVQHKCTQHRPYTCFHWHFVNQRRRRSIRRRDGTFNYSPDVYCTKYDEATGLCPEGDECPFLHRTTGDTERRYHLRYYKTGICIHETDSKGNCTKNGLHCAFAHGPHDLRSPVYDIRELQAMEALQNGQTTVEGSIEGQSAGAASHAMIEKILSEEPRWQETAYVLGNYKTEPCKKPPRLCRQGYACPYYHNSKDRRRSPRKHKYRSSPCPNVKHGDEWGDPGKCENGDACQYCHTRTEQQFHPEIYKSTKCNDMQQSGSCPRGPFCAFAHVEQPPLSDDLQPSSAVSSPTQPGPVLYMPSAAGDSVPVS
Technique: RNA Bind-n-Seq
Form: RNA
Sample: in vitro
Concentration: not given
Setting: RNA with constant flanks, human and mouse sites, ends assumed
Baseline: input RNA pool
Reading: higher = stronger binding
Constant ends, left off below: GGGAGUUCUACAGUCCGACGAUC … CAACAGAGGAUUGAGCAUCA
Strand	bound/input enrichment [ratio]
GAUACAGCCUAUCCUGAAACCAAUGAUGCUAUUCCUAUGAUCAGCAAACUGAGGUACAAUCCCAGAUUUGACAAAGCUUUCAAACAUGUGUUUGGAAAGACUCUUAUUUGUCGUAGCAUG	0.331
GAUGUCAUUACUUCCUGUAUUGUCAUUUCUUCCUAUAAUUGAAAACUGAAAGACAUCUCAGAUUCCUUUUAAAAGAGUCUCUCCCUUGCCAUGUCUCUCCAUCCCUUUCCCUCCCCUUCC	0.721
AAUAUUAAAGAAGCUGCCAGGUGGAUGGAUGAAGCCCAGGCCCUGGACACAGCAGACAGAUUUAUUAAUUCCAAGUGUGCAAAAUACAUGUUAAAAGCCAACCUGAUUAAAGAGGCUGAA	0.251
UCUCAUUGUCUCACACUCUGACAAGAGUGAGUUAUUAUUUUUUUCUUUUUUACAUUUUGUAUAGAGACAAAUUCAUUUAAACAAACUUAUUAUUAUUAUUAUUUUUUACAAAAUAUAUAU	24.6
CCAACGUUAGAAGCAGCCUGGCCUCAUCUACAGCUUGUUUAUGAAUUUUUCUUAAGAUUUUUAGAGUCUCCAGAUUUCCAACCUAAUAUAGCGAAGAAAUAUAUUGAUCAGAAGUUUGUA	1.54
GAGAAAAAAAAUUACUUAUUUUCUUGCCCCAUACAUACCUUGAGGCGAGCAAAAAAAUUAAAUUUUAACCAUGAGGGAAAUCGUGCACAUCCAGGCUGGUCAGUGUGGCAACCAGAUCGG	0.412
ACAUUUGAUGAGCUUCGAGAAACCAAAACCUCUGAGUACUUUAGUCUGUCCCACCAGCAGUUAGACUACAGAAUAUUGCUGAUGGAUGAAGAUCAAGACCGGAUAUAUGUGGGGAGCAAA	0.262
GAAAUUUCAAAAGCAGGGGAGUAUGUACGAGUUAAACUACAACUGAAUCCAGCUGCUAGGGAAUUUAAACCAGAUGUAAAGUCUAAACCAGUGUCAGAUUCAUCUUCAGCACCAGCUUUU	0.215

Block 3
Target: Sal-like protein 4, full length isoform A (SALL4, Homo sapiens, UniProt Q9UJQ4, residues 1-1053)
UniProt Q9UJQ4, sequence (whole entry, looked up): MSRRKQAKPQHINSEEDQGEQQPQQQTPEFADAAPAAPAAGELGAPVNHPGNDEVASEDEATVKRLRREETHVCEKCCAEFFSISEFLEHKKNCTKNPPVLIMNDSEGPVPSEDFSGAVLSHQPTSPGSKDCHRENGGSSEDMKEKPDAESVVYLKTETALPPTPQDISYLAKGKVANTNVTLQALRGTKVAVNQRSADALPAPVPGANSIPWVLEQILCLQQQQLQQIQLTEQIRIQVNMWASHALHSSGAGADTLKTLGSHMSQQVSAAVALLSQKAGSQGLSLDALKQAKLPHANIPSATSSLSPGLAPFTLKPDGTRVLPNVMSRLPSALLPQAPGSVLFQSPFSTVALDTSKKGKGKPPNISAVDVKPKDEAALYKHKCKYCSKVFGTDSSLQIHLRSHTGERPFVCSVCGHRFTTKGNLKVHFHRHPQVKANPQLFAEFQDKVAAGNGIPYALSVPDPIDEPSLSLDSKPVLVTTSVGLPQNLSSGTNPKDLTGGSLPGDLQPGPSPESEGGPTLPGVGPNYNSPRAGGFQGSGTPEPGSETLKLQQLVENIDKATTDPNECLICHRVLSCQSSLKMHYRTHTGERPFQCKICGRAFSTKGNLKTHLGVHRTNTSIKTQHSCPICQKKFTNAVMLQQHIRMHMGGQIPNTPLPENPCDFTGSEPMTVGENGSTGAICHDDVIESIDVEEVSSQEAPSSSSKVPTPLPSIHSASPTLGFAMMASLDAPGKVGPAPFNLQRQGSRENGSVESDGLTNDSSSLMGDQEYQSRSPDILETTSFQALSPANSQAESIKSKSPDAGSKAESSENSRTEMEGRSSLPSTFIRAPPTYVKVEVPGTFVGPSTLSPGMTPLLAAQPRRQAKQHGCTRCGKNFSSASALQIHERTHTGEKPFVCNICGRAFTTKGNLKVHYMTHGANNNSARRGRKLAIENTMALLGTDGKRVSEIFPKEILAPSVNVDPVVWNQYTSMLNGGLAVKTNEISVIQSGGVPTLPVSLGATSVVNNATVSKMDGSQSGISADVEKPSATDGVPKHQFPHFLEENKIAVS
Technique: universal PBM
Form: double-stranded DNA, one strand shown
Sample: in vitro
Concentration: 600 nM
Setting: 8-mer, flanks averaged, mean of replicates
Reading: higher = stronger binding
Strand	E-score
CCGCCAAG	-0.277
AATCGAGG	-0.114
AGGGATGG	-0.146
ACACAACG	0.111
CAAACGAA	0.102
AATACCGA	0.151
CCTCTGGC	-0.077

Further values, each from its own experiment
Molecule	target	test	test system	setting	scale	endpoint	result
PhoQ, residues 284 288 289 292 302 303 ASASEQ	PhoP, residues 12 14 15 18 19 AWHSL (Escherichia coli, UniProt P23836)	Sort-seq, refers to: YFP reporter	E. coli	PhoQ-PhoP variant library, added: 10 µM Mg2+	baseline: high Mg2+ state, higher = stronger signaling	fold induction	1.69

Some of these lines once more (block 2):
Strand	bound/input enrichment [ratio]
GAGAAAAAAAAUUACUUAUUUUCUUGCCCCAUACAUACCUUGAGGCGAGCAAAAAAAUUAAAUUUUAACCAUGAGGGAAAUCGUGCACAUCCAGGCUGGUCAGUGUGGCAACCAGAUCGG	0.412
ACAUUUGAUGAGCUUCGAGAAACCAAAACCUCUGAGUACUUUAGUCUGUCCCACCAGCAGUUAGACUACAGAAUAUUGCUGAUGGAUGAAGAUCAAGACCGGAUAUAUGUGGGGAGCAAA	0.262
